Earlier results that unrelated publications cite.
Each line is one published result; not all experiments were run side by side. ± gives the spread as reported.
Slc6a2: Transporter (Slc6a2, Rattus norvegicus, UniProt Q63380)
CNR2: Cannabinoid receptor 2 (CNR2, Homo sapiens, UniProt P34972)
UniProt P34972, sequence (whole entry, looked up): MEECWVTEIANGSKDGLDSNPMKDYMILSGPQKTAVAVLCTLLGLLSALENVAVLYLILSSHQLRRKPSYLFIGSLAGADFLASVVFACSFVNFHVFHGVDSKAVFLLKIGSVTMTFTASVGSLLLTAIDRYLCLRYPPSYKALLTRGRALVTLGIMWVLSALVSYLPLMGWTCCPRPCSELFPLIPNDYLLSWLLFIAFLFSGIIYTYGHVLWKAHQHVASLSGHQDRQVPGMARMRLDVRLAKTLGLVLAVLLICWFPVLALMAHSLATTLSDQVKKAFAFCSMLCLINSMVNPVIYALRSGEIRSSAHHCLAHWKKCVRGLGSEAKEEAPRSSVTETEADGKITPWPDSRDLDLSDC
UniProt P35348, sequence (whole entry, looked up): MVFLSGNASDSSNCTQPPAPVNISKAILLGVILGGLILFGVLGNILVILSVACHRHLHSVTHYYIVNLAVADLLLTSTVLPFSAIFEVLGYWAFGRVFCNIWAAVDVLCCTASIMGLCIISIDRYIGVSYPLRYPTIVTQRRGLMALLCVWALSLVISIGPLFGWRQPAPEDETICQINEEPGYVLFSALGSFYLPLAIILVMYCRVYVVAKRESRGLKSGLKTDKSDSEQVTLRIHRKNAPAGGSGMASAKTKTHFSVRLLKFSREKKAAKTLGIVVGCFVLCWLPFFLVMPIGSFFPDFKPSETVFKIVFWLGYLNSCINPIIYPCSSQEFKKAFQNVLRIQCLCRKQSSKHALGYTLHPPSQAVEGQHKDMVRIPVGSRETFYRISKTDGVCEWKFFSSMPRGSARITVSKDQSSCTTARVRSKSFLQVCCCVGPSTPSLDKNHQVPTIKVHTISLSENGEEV
UniProt P18508, sequence (whole entry, looked up): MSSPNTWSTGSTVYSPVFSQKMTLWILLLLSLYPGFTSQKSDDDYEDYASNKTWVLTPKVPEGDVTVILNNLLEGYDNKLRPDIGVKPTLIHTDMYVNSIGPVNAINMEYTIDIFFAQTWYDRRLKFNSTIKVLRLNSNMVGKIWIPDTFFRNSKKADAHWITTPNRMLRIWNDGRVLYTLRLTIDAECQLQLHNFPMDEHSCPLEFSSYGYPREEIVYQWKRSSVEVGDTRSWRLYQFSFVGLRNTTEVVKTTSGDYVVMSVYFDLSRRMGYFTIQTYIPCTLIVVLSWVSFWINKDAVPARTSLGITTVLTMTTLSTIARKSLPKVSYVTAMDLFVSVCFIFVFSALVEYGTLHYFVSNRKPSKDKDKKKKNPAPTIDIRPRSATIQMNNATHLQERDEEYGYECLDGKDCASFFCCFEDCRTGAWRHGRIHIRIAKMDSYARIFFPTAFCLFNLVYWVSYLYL
UniProt P63138, sequence (whole entry, looked up): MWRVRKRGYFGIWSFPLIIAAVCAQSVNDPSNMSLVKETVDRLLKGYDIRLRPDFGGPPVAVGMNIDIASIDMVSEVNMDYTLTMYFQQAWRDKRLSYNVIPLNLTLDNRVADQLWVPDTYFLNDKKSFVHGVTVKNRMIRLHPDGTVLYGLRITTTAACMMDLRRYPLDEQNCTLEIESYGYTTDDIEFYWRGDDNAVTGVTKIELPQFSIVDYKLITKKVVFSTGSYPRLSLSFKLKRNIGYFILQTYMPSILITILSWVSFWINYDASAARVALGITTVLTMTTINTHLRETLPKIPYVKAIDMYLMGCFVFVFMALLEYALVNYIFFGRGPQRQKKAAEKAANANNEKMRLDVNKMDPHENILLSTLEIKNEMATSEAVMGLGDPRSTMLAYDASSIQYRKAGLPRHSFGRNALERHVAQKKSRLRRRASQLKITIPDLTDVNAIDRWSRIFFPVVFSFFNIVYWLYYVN
UniProt P08684, sequence (whole entry, looked up): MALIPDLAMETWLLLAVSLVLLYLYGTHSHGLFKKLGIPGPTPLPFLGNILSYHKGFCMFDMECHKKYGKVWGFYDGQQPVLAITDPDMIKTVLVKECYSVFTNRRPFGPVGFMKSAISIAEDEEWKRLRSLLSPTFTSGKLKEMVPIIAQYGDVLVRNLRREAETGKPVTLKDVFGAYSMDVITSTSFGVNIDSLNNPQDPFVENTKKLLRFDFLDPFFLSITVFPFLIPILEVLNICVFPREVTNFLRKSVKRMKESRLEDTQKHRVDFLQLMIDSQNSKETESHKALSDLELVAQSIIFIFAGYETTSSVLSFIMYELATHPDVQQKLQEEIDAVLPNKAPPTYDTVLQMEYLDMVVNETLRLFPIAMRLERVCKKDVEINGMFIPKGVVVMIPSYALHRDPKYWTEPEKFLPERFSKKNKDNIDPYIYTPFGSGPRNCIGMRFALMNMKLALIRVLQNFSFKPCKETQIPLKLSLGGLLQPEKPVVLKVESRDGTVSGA
UniProt P62813, sequence (whole entry, looked up): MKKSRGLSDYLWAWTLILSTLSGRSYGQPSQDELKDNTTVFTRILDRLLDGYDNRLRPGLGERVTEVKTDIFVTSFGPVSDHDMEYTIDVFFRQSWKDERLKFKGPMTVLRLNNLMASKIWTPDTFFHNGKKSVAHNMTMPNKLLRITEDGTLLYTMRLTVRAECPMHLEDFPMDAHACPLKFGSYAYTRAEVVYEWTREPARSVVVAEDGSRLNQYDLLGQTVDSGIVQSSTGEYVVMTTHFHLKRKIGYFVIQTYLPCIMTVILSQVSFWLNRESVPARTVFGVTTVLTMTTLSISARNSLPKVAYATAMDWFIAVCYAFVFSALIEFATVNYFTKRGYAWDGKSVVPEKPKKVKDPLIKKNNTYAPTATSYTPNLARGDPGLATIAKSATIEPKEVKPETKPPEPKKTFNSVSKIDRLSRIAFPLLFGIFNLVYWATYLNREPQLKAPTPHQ
UniProt P41143, sequence (whole entry, looked up): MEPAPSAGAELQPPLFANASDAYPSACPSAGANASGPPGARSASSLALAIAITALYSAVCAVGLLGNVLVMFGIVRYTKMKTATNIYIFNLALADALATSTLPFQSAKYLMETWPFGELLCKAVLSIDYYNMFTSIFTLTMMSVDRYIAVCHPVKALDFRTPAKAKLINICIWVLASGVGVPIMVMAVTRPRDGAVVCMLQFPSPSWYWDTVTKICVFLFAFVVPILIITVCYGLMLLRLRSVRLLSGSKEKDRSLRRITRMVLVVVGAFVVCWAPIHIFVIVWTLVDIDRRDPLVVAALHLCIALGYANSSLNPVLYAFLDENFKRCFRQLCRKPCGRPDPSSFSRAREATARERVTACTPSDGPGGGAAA

SMILES	target	test	system	setting	scale	quantity	result
CCCC(C(=O)c1ccc2c(c1)OCO2)N1CCCC1 (stereo not shown)	Slc6a2	transporter-mediated release, substrate	rat brain synaptosomes	–	–	EC50	inactive
C=CCN(CC=C)CCc1c[nH]c2ccc(OC)cc12	Delta-type opioid receptor (OPRD1, Homo sapiens, UniProt P41143)	–	–	–	–	Ki	> 10000 nM
CCCCCCC(C)(C)c1cc(O)c2c(c1)OC(C)(C)[C@@H]1CC=C(CO)C[C@@H]21	CNR2	–	–	concentration not given, F197V mutant	reference: wild type	binding affinity change	no effect
C=CCN(CC=C)CCc1c[nH]c2ccccc12	Alpha-1A adrenergic receptor (ADRA1A, Homo sapiens, UniProt P35348)	binding	cloned human receptor	added: [3H]prazocin	–	Ki	1660 nM
COC(=O)[C@H]1[C@@H](OC(=O)c2ccccc2)C[C@@H]2CC[C@H]1N2C	Slc6a2	transporter-mediated release, substrate	rat brain synaptosomes	–	–	EC50	inactive
C[C@]12CCC(=O)CC1=CC[C@@H]1[C@@H]2CC[C@]2(C)C(=O)CC[C@@H]12	ketosteroid isomerase wild-type	substrate	–	pH 7.0, 3.3 % methanol	–	Km	49.9 ± 1.3 µM
CN1C(=O)CN=C(c2ccccc2)c2cc(Cl)ccc21	GABAA receptor alpha2 vs alpha1	potentiation of GABA current, positive allosteric modulator	–	added: GABA at EC3	reference: alpha2 over alpha1	selectivity ratio	1.47
C[C@]12CC[C@H]3[C@@H](CCC4=CC(=O)CC[C@@]43C)[C@@H]1CC[C@@H]2O	Cytochrome P450 3A4 (CYP3A4, Homo sapiens, UniProt P08684)	substrate	–	–	–	Km	24 µM
CCOC(=O)C1(c2ccccc2)CCN(C)CC1	carboxylesterase 1 (human liver)	substrate	–	–	–	Km	1900 µM
O=c1c2nc(Br)n([C@@H]3O[C@@H]4CO[P@@](O)(=S)O[C@H]4[C@H]3O)c2nc2[nH]c(-c3ccccc3)cn12	PDE2A	cyclic nucleotide hydrolysis, substrate or inhibitor, isothermal titration calorimetry	–	–	–	Km or Ki	760 nM
N[C@]1(c2ccccc2Cl)CCC[C@H](O)C1=O	muscarinic receptors	binding, competitive binding screen	–	concentration not given	–	activity	inactive
CCCCCCC(C)(C)c1ccc([C@@H]2C[C@H](O)CC[C@H]2CCCO)c(O)c1	CNR2	–	–	concentration not given, F197V mutant	reference: wild type	binding affinity change	no effect
CCN(CC)CCN1C(=O)CN=C(c2ccccc2F)c2cc(Cl)ccc21	GABA-A receptor; alpha-1/beta-2/gamma-2 (Rattus norvegicus, UniProt P18508+P62813+P63138)	GABA-evoked current, positive modulator	–	wild-type receptor, unit not given	reference: GABA current alone	maximal potentiation	2.6
